{"data": "Experimental data pooled from the literature", "note": "Every numbered part comes from another study and shows a few of its results, in no order."}
{"data": "Sample 1", "target": "Centromere-binding protein 1, full length, His-tagged (CBF1, Saccharomyces cerevisiae, UniProt P17106, residues 1-351)", "method": "competition protein-binding microarray", "molecule type": "double-stranded DNA, one strand shown", "medium": "in vitro", "tested at": "2 µM", "notes": "whole 60-bp probe, lowest competitor level", "added": "Pho4 competitor, 0.05 µM", "direction": "higher = stronger binding", "shared flanks, not repeated": "… GTCTTGATTCGCTTGACGCTGCTG", "UniProt P17106, sequence (whole entry, looked up)": "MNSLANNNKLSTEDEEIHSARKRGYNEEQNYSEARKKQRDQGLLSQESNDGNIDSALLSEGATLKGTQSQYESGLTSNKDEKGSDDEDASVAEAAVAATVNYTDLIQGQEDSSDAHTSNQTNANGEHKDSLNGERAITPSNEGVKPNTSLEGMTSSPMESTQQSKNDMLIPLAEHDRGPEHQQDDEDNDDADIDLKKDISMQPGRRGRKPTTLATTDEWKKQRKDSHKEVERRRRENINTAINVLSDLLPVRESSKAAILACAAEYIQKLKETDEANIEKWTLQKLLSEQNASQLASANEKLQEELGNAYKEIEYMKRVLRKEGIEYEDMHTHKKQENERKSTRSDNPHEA"}
{"Strand": "GGATGCCCGAAATCCAACGTGCAAACTATTCTCGGG", "fluorescence intensity [a.u.]": 88.7}
{"Strand": "GCACTTCGCATTAAGCGCGTGAAACTATTGGCTCTC", "fluorescence intensity [a.u.]": 105}
{"Strand": "AACTGTTTCAGAACAAACGTGGTCGTCCCAAGAAGT", "fluorescence intensity [a.u.]": 93.2}
{"Strand": "TATTATATTCTCCATCACGTTATTGAATATTTCGTT", "fluorescence intensity [a.u.]": 928}
{"Strand": "TGCGCAACAACTTGGGCCGTGGGTGTATGTCTAGAA", "fluorescence intensity [a.u.]": 53.6}
{"Strand": "AATCTTTCAATCGCCATCGTGGGTAAGGATACGCCT", "fluorescence intensity [a.u.]": 66.4}
{"Strand": "CAATGGCTCAGTAACCTCGTGATGGAAAAAGGGAAA", "fluorescence intensity [a.u.]": 503}
{"Strand": "CATTAGCGTCTCTTTCACGTGCGGTCTGAGAACTAC", "fluorescence intensity [a.u.]": 638}
{"Strand": "AAAGCGGTAATTTGCCGAGTGGGTGCAGATATCTAT", "fluorescence intensity [a.u.]": 79.3}
{"Strand": "GTCTTGTCTCATTGTCACCACACTTTCCCCACTTCA", "fluorescence intensity [a.u.]": 88.8}
{"Strand": "CATCGGCCCAACTTGATCATGCAATTAGCAAGCAAC", "fluorescence intensity [a.u.]": 89.9}
{"Strand": "TAGTTTGCTGTCCGTCACGTGCTAAAGGGTCTGATA", "fluorescence intensity [a.u.]": 7250}
{"Strand": "CGGGGTTAAGTTTGCCTGGTGGGTGGCTTGCAGCAG", "fluorescence intensity [a.u.]": 61}
{"Strand": "GTCTTGTCTCATTGTGGCGTGGGTGTCCCCACTTCA", "fluorescence intensity [a.u.]": 88.3}
{"Strand": "CTCAAAAGCTTGGGGTGCGTGGGACGGCGCTGCTCG", "fluorescence intensity [a.u.]": 64.4}
{"Strand": "ACCTACCCGCTTCATCACATGAACACCGCTTCCTGA", "fluorescence intensity [a.u.]": 222}
{"data": "Sample 2", "target": "Interferon regulatory factor 5, full length, phosphomimetic (IRF5, Homo sapiens, UniProt Q13568-2, residues 1-514, S451D/S453D/S456D/S462D)", "method": "protein-binding microarray", "molecule type": "double-stranded DNA, one strand shown", "medium": "in vitro", "tested at": "940 nM top", "notes": "60-bp whole probe", "added": "salmon DNA 0.4 mg/ml", "reference": "random background probes", "direction": "higher = stronger binding", "shared flanks, not repeated": "GCCTAGCAC … GTCTTGATTCGCTTGACGCTGCTG"}
{"Strand": "TCCTCTTTCACTGCTCCCCAAGTGCTA", "fitted relative affinity [z-score]": 2.2}
{"Strand": "TTAGATTCCATTTTCGATTAGTGCTAG", "fitted relative affinity [z-score]": 1.67}
{"Strand": "GACGGACTGGCCTATCGGGACGTGCTA", "fitted relative affinity [z-score]": -0.513}
{"Strand": "TTAGGTTTCCTTATCCTTTAGTGCTAG", "fitted relative affinity [z-score]": 2.08}
{"Strand": "TCATTCCTCTTTTTTGTACTGTGCTAG", "fitted relative affinity [z-score]": 1.9}
{"Strand": "TTAGAACTGAGTCTCGATGAGTGCTAG", "fitted relative affinity [z-score]": 1.41}
{"Strand": "ATTAGAGGATAACTTACAGAGTGCTAG", "fitted relative affinity [z-score]": -0.526}
{"Strand": "CACTCTCAGAATCTCTCATGGTGCTAG", "fitted relative affinity [z-score]": 2.69}
{"Strand": "GACGGACTGCTTTTGCTGACGTGCTAG", "fitted relative affinity [z-score]": -0.235}
{"Strand": "CTTTATGTACTCTCTCCATGTGTGCTA", "fitted relative affinity [z-score]": 1.22}
{"Strand": "GACGGTATTGGGACTGGGGACGTGCTA", "fitted relative affinity [z-score]": 0.244}
{"Strand": "AACGAACTGAGACTGGAGACGTGCTAG", "fitted relative affinity [z-score]": -0.371}
{"Strand": "TCACTTATCCTATCAGTACTGTGCTAG", "fitted relative affinity [z-score]": 0.537}
{"Strand": "TTAGGTAGCCTTTTCCTTTAGTGCTAG", "fitted relative affinity [z-score]": -0.309}
{"Strand": "GGGATAAGGACAGACACCATGTGCTAG", "fitted relative affinity [z-score]": -0.19}
{"Strand": "GAAGAACTGAGTCTCGAGACGTGCTAG", "fitted relative affinity [z-score]": 0.5}
{"Strand": "GACCAACTGAGACTGGAGACGTGCTAG", "fitted relative affinity [z-score]": 0.0111}
{"Strand": "GACGGTACCCTACTGCTGACGTGCTAG", "fitted relative affinity [z-score]": -0.213}
{"Strand": "TTAGGTACCCTTCTCCTTTAGTGCTAG", "fitted relative affinity [z-score]": 0.113}
{"data": "Sample 3", "target": "RNA binding protein fox-1 homolog 2, RRM domain, GST-SBP tag (RBFOX2, Homo sapiens, UniProt O43251-10, residues 100-194)", "method": "RNA Bind-n-Seq", "molecule type": "RNA", "medium": "in vitro", "tested at": "365 nM", "notes": "natural RNA segment, single round, ends assumed", "reference": "no-protein control", "direction": "higher = stronger binding", "shared flanks, not repeated": "GGGAGUUCUACAGUCCGACGAUC … UGGAAUUCUCGGGUGCCAA", "Construct (chain)": "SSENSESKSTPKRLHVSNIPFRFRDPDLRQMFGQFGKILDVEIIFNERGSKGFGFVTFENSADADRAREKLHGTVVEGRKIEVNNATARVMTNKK"}
{"Strand": "AAGUAUUAAUGAGUAUUUCCUUUCUCCAUAAGUGCAGGACUGUUACUCACUACUAAACUCUACCAAGAAUGGAAACAAAGAAUAUUUUCUGAAGAUUUUUUUGAAGAUUA", "RBNS enrichment (R)": 0.529}
{"Strand": "CCGUGCUGCUGUGUUCUGCUCCUCCCCACGCUUCCCUGCUAUAGUUCCCAGCUGCUGUAACGGAGCCACCUCCAACUCUAACAAUAAACCAAGUUCAUUGCAGAUAGUGU", "RBNS enrichment (R)": 0.373}
{"Strand": "CAUGCCCUACUUGGAAAGAUCUAAGAUCUGAAUCUUAUCCUUUGCCAUCUUCUGUUACCAUAUGGUGUUGAAUGCAAGUUUAAUUACCAUGGAGAUUGUUUUACAAACUU", "RBNS enrichment (R)": 0.345}
{"Strand": "CAAGUUAAUGCAUGUUACUCAGUCGCCCAGUAUGUGAAAGAAGAUAUGAGGGAGACAAAUGAGUUGAUAGUUUGAAUUAUAGGAUUUUUGCCACGUUACCUUGAUGCAAA", "RBNS enrichment (R)": 46.9}
{"Strand": "CCCAACCUCACCCUCCUGACCCCCAUGUAAAUAUUGUUCUGCUGUCUGGGACUCCUGUCUAGGUGCCCCUGAUGACGGGAUGCUCUUUAAAUAAUAAAGAUGGUUUUGAU", "RBNS enrichment (R)": 0.258}
{"Strand": "AGUUGUACUGUAUGCAGUUUUGUAAAUAAGUGAAAAUAAUUUGUUGUACUUUUUAUUCAAUUCUGUAUAGAUUAUAAAAUUAUUUUUAUUAAAUAAAUAUUUUACAGUAU", "RBNS enrichment (R)": 1.52}
{"Strand": "CAACAUAUAGAAAAAUGUAUAGAUGCUUGGACAGACCCGGUAAUGGGUGGCCAUUGGUAAAUGUUAGGAACACACCAGGUCACCUGACAUCCCAAGAAUGCUCACAAACC", "RBNS enrichment (R)": 0.378}
{"Strand": "CUGUUCCAAACUAUUCCAUCAUCCUGUCCCAAUUGCCAAUAGAAAAGCUAAAAUCCCUGGCUCAGUUGCUAGAGUGCCUAGUAAAAUUCCUAGCAUAUGUGAGCGCUCCA", "RBNS enrichment (R)": 0.492}
{"data": "Sample 4", "target": "Ras GTPase-activating protein-binding protein 1, C-terminal RGG region (G3BP1, Homo sapiens, UniProt Q13283)", "method": "RNA Bind-n-Seq", "molecule type": "RNA", "medium": "in vitro", "tested at": "1 µM", "notes": "whole 134-nt RNA, ends assumed", "added": "150 mM KCl", "reference": "input library", "direction": "higher = stronger binding", "shared flanks, not repeated": "GGGAGUUCUACAGUCCGACGAUC … UGGAAUUCUCGGGUGUCAAGG", "UniProt Q13283, sequence (whole entry, looked up)": "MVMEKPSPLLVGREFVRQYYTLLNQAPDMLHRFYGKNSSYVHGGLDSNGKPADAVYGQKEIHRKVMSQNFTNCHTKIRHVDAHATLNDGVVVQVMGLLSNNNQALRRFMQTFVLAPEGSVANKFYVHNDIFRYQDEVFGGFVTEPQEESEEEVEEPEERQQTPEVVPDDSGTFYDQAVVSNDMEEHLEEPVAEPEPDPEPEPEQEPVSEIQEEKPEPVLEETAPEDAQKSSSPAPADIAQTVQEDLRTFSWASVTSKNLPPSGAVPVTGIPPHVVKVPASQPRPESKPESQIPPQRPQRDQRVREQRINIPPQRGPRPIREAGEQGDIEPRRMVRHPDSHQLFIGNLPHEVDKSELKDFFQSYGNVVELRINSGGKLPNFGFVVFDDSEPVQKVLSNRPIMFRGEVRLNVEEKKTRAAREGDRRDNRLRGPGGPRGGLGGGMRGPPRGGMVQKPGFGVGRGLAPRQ"}
{"Strand": "CCUGUGCUACACAUCGUAUGUACCGAAUCGGGCCCCCCCGGCCCCCCCGGGGCCCCCCCGGAAAGUAUUAUGUUACGCCGUUCGGAUCUG", "log2 enrichment": -1.29}
{"Strand": "UCAAGUCCUGUGCUACACAUCGUAUGUACCGAAUCGGAAAGGUGGUUUUUUUGGAAAGUAUUAUGUUACGCCGUUCGGAUCUGCACUUCC", "log2 enrichment": -1.26}
{"Strand": "UGCUGCUUUCUGCCUUGGUGGCAGGCAGAGAACUGUCUCGUACUAGAAUUCAAGGAGGAAAGAAGAAGAAAUAAAAGAAGCUGCUCCAUU", "log2 enrichment": -1.57}
{"Strand": "CAAGUCCUGUGCUACACAUCGUAUGUACCGAAUCGGGUUUUUGGGUUUGGGAGGGAAAGUAUUAUGUUACGCCGUUCGGAUCUGCACUUC", "log2 enrichment": 1.41}
{"Strand": "CACAGACAACACGCACCCACACAGACACAGAGGGAAGAAAUUGGGAUGGGGACAGGGUGCACAGCAGGGCGGGGUAGGACCCCAGCCCCU", "log2 enrichment": -0.436}
{"Strand": "GUGCUACACAUCGUAUGUACCGAAUCGGGGAAAAAAAGGGGAAAAAAAGGGGUUUUUUUGGGGAAAGUAUUAUGUUACGCCGUUCGGAUC", "log2 enrichment": 0.904}
{"Strand": "AGUCCUGUGCUACACAUCGUAUGUACCGAAUCGGGUUUUUUUGGGUUUGGGUUUGGGAAAGUAUUAUGUUACGCCGUUCGGAUCUGCACU", "log2 enrichment": 1.15}
{"Strand": "UCAAGUCCUGUGCUACACAUCGUAUGUACCGAAUCGGGUUUGGGUUUGGUUUGGGAAAGUAUUAUGUUACGCCGUUCGGAUCUGCACUUC", "log2 enrichment": -1.03}
{"Strand": "UGCGCCAACCUAGGCUUUCUUCUUCCUCUCCUCUUUAUAGGCGGAGUCGAUCUCCCAAAAGGAGAAGGUAGGCCUUCAGUCAUUUGUGAU", "log2 enrichment": -0.528}
{"note": "For quick reference, copied from above (sample 3):"}
{"Strand": "AAGUAUUAAUGAGUAUUUCCUUUCUCCAUAAGUGCAGGACUGUUACUCACUACUAAACUCUACCAAGAAUGGAAACAAAGAAUAUUUUCUGAAGAUUUUUUUGAAGAUUA", "RBNS enrichment (R)": 0.529}
{"Strand": "CCGUGCUGCUGUGUUCUGCUCCUCCCCACGCUUCCCUGCUAUAGUUCCCAGCUGCUGUAACGGAGCCACCUCCAACUCUAACAAUAAACCAAGUUCAUUGCAGAUAGUGU", "RBNS enrichment (R)": 0.373}
{"Strand": "CAUGCCCUACUUGGAAAGAUCUAAGAUCUGAAUCUUAUCCUUUGCCAUCUUCUGUUACCAUAUGGUGUUGAAUGCAAGUUUAAUUACCAUGGAGAUUGUUUUACAAACUU", "RBNS enrichment (R)": 0.345}
{"Strand": "CAAGUUAAUGCAUGUUACUCAGUCGCCCAGUAUGUGAAAGAAGAUAUGAGGGAGACAAAUGAGUUGAUAGUUUGAAUUAUAGGAUUUUUGCCACGUUACCUUGAUGCAAA", "RBNS enrichment (R)": 46.9}
{"Strand": "CCCAACCUCACCCUCCUGACCCCCAUGUAAAUAUUGUUCUGCUGUCUGGGACUCCUGUCUAGGUGCCCCUGAUGACGGGAUGCUCUUUAAAUAAUAAAGAUGGUUUUGAU", "RBNS enrichment (R)": 0.258}
